Measurements of several laboratories.
Numbered parts are unrelated; each lists some results of a single study.
Chain of UniProt P16591 (whole entry, looked up): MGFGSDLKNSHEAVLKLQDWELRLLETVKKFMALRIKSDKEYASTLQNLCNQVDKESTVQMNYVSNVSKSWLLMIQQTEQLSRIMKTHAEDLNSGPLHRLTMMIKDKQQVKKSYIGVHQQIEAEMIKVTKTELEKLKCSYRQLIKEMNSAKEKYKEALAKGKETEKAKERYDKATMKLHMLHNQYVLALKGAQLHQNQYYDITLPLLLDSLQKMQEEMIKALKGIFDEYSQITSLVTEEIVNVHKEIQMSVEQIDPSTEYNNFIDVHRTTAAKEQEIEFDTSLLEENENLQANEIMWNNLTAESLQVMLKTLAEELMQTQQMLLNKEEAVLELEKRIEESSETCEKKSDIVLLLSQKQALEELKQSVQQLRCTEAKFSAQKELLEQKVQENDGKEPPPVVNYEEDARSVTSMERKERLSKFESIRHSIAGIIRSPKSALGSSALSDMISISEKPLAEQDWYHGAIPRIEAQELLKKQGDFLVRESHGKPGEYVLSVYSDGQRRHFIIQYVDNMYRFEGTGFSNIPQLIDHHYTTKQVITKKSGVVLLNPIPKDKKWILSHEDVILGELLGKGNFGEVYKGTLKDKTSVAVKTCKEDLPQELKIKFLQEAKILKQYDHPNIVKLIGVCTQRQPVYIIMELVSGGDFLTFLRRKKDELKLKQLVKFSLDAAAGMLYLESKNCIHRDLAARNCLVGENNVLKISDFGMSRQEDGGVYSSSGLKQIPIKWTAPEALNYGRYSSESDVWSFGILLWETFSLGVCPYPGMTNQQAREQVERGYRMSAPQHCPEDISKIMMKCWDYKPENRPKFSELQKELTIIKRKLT
Chain of UniProt Q9HC98 (whole entry, looked up): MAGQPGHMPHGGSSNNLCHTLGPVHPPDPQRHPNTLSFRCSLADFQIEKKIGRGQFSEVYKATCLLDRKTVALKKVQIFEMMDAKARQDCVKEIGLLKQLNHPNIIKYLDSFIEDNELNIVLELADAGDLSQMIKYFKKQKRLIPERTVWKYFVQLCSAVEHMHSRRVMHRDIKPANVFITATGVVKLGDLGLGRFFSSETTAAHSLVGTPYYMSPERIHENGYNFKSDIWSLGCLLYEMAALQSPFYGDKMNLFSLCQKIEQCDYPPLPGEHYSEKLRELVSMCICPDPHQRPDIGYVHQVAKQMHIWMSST
Chain of UniProt P09619 (whole entry, looked up): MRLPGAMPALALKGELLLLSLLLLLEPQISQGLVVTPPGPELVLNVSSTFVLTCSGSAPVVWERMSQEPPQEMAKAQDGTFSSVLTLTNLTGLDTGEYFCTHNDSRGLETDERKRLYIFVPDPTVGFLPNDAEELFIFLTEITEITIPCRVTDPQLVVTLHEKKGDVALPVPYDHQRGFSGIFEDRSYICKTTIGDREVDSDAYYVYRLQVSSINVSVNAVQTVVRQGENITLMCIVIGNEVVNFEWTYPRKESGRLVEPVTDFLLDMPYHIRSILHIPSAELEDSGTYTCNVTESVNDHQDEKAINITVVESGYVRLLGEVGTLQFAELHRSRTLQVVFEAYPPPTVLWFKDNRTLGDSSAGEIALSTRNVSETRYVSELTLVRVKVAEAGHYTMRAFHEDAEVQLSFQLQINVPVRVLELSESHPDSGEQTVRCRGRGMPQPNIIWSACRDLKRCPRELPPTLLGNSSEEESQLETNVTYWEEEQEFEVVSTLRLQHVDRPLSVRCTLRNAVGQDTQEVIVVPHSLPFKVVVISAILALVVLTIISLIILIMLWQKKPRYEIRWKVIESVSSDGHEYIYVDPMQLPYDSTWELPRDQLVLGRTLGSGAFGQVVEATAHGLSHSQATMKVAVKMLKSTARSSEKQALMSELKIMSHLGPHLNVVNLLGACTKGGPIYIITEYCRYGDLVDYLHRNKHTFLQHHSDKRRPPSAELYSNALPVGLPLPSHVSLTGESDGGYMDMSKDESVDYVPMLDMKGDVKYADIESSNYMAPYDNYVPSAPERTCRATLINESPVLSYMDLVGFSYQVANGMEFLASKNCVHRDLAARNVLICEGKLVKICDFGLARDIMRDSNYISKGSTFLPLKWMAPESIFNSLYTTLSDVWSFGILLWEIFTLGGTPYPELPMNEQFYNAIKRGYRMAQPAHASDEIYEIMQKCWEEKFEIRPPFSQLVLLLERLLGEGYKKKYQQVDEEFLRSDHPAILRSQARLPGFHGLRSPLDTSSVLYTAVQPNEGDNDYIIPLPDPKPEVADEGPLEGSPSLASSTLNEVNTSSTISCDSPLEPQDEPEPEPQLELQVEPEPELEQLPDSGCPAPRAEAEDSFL
Chain of UniProt P29376 (whole entry, looked up): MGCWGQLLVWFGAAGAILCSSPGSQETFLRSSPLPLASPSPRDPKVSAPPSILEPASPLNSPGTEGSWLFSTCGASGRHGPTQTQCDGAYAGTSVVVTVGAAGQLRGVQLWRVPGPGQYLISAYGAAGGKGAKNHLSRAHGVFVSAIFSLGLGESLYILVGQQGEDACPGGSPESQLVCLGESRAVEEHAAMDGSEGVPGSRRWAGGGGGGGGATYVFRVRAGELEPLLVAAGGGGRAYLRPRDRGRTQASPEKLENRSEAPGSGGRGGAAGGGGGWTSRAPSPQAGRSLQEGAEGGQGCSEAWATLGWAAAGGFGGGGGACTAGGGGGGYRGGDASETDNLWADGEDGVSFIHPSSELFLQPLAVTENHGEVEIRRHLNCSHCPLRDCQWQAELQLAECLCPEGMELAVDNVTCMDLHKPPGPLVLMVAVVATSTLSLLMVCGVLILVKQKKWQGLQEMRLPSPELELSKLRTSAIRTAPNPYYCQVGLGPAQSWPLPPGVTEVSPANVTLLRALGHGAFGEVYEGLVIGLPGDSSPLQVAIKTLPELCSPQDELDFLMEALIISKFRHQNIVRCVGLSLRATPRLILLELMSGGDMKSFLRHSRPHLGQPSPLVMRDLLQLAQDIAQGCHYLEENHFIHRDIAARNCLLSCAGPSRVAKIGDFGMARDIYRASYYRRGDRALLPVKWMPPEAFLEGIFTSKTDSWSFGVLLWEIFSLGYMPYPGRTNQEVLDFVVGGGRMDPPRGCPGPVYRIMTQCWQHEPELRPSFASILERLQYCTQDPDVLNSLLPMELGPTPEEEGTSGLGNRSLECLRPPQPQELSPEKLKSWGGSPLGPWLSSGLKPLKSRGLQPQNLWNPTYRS

Block 1
Compound: CN(C)C(=O)Cn1cc(-c2nc([C@@](C)(c3ccc(-c4cnc(N)nc4)cc3)C3CC3)no2)cn1
Read-out: cell-free assay
Technique: competition with immobilised ligand
Concentration: 1 µM
target	remaining binding
FER (Homo sapiens, UniProt P16591)	94%
Tyrosine-protein kinase ABL1, phosphorylated (ABL1, Homo sapiens, UniProt P00519, Y253F)	76%
LTK (Homo sapiens, UniProt P29376)	89%
PDGFRB (Homo sapiens, UniProt P09619)	82%
NEK6 (Homo sapiens, UniProt Q9HC98)	100%

Block 2
Organism: Sarcocystis neurona
Read-out: parasite growth
Concentration: 10 µM
Time: 96 h
Relative to: untreated
SMILES	log2 fold change
CCCCC1=NC2(CCCC2)C(=O)N1Cc1ccc(-c2ccccc2-c2nnn[nH]2)cc1	-0.06
Cc1c(OCC(F)(F)F)ccnc1C[S+]([O-])c1nc2ccccc2[nH]1 (centres unmarked)	1.05
COC1=CC(=O)C[C@@H](C)[C@]12Oc1c(Cl)c(OC)cc(OC)c1C2=O	0.54

Mixed results
SMILES	tested on	matrix	concentration	time	quantity	result
CCOc1ccc(Cc2cc([C@@H]3O[C@H](CO)[C@@H](O)[C@H](O)[C@H]3O)ccc2Cl)cc1	A-375		100 µM	36 h	viability	94.9%
CCC[C@@H]1NC(=O)CSC[C@@H](C(=O)OCC)N(C)C(=O)[C@H](CC(C)C)NC(=O)[C@H](C)N(C)C(=O)[C@H](CC(C)C)NC(=O)[C@H](C)N(C)C(=O)[C@@H]2CCCN2C(=O)[C@H](CC(C)C)NC(=O)CN(CCC)C1=O		hydrocarbon/water			logD	1.18
Cc1ccc(C(=O)Nc2ccc(S(=O)(=O)O)c3cc(S(=O)(=O)O)cc(S(=O)(=O)O)c23)cc1NC(=O)c1cccc(NC(=O)Nc2cccc(C(=O)Nc3cc(C(=O)Nc4ccc(S(=O)(=O)O)c5cc(S(=O)(=O)O)cc(S(=O)(=O)O)c45)ccc3C)c2)c1	A-375		100 µM	36 h	viability	93.4%

Excerpt of the above (block 2):
SMILES	log2 fold change
CCCCC1=NC2(CCCC2)C(=O)N1Cc1ccc(-c2ccccc2-c2nnn[nH]2)cc1	-0.06
COC1=CC(=O)C[C@@H](C)[C@]12Oc1c(Cl)c(OC)cc(OC)c1C2=O	0.54
